Experimental data from different studies.
Each numbered part is a random draw from the data of one study; scales do not carry over between parts. “And” joins repeats or separate records; there may be more than shown.
Sequence of UniProt P25098 (whole entry, looked up): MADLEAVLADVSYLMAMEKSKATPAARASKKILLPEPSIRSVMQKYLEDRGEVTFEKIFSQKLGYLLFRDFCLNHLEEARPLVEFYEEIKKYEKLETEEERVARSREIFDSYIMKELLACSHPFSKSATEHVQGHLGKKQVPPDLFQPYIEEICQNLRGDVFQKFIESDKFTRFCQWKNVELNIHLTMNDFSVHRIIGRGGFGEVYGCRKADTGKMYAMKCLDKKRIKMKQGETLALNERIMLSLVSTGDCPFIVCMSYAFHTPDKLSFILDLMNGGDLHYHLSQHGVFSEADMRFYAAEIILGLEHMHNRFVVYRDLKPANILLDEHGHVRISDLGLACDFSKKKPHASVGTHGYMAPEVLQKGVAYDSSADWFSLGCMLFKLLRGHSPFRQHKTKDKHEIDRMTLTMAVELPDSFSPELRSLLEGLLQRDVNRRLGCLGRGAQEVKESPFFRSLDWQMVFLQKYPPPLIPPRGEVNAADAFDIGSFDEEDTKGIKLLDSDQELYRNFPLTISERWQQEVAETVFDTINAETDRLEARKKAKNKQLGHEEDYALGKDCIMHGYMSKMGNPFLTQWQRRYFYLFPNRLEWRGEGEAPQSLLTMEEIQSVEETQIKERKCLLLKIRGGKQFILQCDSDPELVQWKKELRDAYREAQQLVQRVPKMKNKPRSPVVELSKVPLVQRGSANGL
Sequence of UniProt Q16659 (whole entry, looked up): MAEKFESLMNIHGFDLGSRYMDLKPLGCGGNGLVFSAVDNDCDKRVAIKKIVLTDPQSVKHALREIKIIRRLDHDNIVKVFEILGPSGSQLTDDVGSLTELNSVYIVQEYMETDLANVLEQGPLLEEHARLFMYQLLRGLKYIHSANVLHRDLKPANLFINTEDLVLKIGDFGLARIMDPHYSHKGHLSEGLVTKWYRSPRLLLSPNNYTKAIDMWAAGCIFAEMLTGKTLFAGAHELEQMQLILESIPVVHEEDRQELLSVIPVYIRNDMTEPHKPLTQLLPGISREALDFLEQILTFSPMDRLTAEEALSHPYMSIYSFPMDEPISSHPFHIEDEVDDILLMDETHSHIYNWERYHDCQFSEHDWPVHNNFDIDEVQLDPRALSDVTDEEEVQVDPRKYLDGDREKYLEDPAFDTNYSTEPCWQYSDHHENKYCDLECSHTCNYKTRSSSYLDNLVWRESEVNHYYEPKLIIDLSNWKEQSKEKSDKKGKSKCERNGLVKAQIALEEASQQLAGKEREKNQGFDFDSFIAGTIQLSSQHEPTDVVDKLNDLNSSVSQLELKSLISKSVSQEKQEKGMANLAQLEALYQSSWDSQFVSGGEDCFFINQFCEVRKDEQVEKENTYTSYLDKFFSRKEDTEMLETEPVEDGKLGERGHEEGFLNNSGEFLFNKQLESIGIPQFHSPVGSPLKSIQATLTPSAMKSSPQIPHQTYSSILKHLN
Sequence of UniProt P49840 (whole entry, looked up): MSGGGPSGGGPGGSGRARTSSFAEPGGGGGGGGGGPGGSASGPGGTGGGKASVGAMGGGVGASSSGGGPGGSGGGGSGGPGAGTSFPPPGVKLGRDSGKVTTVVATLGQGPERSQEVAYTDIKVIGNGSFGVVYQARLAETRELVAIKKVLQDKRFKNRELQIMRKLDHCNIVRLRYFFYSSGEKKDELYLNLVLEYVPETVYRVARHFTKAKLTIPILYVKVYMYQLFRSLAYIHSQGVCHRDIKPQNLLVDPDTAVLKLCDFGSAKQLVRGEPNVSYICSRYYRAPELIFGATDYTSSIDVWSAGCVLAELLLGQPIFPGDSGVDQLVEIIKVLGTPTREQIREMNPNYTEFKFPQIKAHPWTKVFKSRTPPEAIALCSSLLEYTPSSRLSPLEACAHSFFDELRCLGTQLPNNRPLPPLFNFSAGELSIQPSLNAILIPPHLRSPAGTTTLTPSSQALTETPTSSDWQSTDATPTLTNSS
Sequence of UniProt O43683 (whole entry, looked up): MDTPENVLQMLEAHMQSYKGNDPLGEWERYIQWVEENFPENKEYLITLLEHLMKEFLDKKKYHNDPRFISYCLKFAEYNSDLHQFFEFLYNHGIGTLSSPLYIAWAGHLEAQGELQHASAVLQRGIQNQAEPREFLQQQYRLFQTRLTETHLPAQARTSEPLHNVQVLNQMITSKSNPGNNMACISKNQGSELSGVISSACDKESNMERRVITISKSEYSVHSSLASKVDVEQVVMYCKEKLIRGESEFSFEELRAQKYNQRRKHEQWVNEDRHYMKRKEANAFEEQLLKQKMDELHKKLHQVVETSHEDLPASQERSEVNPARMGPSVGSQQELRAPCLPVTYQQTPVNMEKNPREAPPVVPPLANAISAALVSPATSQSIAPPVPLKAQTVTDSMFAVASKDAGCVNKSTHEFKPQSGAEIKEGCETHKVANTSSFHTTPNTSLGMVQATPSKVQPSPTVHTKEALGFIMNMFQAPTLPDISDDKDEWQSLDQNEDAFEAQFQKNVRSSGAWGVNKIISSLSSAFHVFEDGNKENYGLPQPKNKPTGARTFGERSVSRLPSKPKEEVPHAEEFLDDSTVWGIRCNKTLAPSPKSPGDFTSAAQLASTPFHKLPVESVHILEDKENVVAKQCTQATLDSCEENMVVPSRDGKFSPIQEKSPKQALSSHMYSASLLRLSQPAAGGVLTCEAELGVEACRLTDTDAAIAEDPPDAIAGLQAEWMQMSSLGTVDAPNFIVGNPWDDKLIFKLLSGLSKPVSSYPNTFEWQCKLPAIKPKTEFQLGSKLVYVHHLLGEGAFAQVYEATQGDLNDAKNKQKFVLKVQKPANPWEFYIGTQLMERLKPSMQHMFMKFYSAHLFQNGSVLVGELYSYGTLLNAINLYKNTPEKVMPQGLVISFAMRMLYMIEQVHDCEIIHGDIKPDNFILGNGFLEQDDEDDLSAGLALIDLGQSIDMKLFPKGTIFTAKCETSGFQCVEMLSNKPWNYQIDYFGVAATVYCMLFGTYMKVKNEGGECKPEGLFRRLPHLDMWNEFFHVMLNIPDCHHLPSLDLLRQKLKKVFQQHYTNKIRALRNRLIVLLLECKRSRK
Sequence of UniProt Q9UBF8 (whole entry, looked up): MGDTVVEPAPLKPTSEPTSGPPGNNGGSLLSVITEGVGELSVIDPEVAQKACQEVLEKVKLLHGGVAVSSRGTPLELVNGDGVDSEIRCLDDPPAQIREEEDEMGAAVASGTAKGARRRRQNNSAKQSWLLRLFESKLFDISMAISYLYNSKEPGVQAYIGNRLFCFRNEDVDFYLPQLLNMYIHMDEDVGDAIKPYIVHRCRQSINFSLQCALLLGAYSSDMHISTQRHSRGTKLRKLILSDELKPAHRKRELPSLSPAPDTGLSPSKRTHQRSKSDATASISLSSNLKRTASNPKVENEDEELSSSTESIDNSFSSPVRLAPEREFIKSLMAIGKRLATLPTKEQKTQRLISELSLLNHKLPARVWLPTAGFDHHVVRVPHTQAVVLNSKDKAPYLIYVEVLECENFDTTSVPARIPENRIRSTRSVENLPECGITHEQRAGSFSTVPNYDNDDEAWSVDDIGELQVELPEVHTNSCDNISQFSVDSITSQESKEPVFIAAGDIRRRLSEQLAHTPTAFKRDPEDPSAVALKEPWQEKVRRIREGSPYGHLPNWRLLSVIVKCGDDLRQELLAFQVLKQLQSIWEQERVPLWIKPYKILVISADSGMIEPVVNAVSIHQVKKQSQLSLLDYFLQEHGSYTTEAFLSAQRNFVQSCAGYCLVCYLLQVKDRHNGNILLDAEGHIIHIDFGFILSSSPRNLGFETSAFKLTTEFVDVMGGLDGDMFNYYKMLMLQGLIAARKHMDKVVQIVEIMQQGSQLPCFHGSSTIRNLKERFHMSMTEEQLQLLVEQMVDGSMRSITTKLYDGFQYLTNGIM
Sequence of UniProt O75582 (whole entry, looked up): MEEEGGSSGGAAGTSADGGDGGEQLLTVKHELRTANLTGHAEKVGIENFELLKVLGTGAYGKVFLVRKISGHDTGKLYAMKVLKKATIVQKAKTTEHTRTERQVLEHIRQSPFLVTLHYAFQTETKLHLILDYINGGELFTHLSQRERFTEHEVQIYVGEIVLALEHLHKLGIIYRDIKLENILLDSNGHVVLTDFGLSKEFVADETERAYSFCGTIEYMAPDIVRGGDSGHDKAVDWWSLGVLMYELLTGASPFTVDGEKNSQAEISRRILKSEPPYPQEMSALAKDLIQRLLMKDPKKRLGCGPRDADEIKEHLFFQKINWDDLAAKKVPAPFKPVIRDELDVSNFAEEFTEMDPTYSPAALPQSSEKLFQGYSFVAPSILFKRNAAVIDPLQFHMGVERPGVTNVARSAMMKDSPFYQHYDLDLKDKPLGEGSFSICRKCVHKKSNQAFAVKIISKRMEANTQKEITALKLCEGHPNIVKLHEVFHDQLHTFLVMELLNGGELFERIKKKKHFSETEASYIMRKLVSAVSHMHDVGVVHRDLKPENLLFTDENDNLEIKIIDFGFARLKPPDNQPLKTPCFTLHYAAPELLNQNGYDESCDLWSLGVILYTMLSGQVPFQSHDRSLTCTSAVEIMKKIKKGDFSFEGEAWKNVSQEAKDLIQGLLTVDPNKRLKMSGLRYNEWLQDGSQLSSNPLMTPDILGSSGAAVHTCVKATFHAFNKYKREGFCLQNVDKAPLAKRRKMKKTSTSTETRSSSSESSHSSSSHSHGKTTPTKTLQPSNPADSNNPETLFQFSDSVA

Sample 1
Target: MAP kinase-interacting serine/threonine-protein kinase 2 (MKNK2, Homo sapiens, UniProt Q9HBH9)
Sequence of UniProt Q9HBH9 (whole entry, looked up): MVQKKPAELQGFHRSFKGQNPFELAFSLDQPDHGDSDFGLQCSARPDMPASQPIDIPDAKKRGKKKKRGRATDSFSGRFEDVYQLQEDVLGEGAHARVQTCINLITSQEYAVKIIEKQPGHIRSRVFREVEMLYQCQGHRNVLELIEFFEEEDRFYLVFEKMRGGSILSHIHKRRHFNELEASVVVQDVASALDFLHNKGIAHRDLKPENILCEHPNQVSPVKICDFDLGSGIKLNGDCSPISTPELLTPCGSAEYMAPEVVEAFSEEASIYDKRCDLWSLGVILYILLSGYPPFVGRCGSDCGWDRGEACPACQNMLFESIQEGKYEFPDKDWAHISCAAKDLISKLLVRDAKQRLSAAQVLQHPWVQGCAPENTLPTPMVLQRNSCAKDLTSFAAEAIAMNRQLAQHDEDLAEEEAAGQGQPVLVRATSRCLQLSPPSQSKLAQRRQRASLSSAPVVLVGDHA
Observed: enzyme activity
Action: inhibitor
Concentration: 0.5 µM
Relative to: control
`O=C1NC(=O)C(c2cn(CCCn3ccnc3)c3ccccc23)=C1Nc1ccccc1` has a remaining activity of 87.2%.
The remaining activity of `COc1ccc(CNC(=O)Nc2ncc([N+](=O)[O-])s2)cc1` is reported as 95.7%.
`CN(C)c1ccc(C=C2C(=O)Nc3ccccc32)cc1` has a remaining activity of 90.5%.
`COc1cc2ncnc(Nc3ccc(F)c(Cl)c3)c2cc1OCCCN1CCOCC1` gave a remaining activity of 54.1%.
The remaining activity of `CC(C)[C@H](CO)Nc1nc(Nc2cc(N)cc(Cl)c2)c2ncn(C(C)C)c2n1` is reported as 113%.
With `COc1cc2nccc(Oc3ccc(NC(=S)NC(=O)c4ccccc4C)cc3)c2cc1OC` the remaining activity was 94.3%.
The remaining activity of `OCC(O)CCON=C1C(c2c(O)[nH]c3ccccc23)=Nc2ccccc21` (stereo not shown) is reported as 72.4%.
With `Nc1[nH]nc2nc3ccccc3nc12` the remaining activity was 89.1%.
`O=C(O)c1ccc2c3c1cccc3c(=O)n1c3ccccc3nc21` gave a remaining activity of 57.2%.
`Cc1nc(-c2ccccc2)c(-c2ccncc2)o1` has a remaining activity of 90.5%.
For `Cn1sc(=O)n(Cc2ccccc2)c1=O`, the remaining activity was 92.1%.
`CNC(=O)c1cc(Oc2ccc(NC(=O)Nc3ccc(Cl)c(C(F)(F)F)c3)cc2)ccn1` gave a remaining activity of 70.3%.

Sample 2
Cell line: HaCaT
Concentration: 100 µM
Time: 36 h
The viability of `CO/N=C1\C[C@]2(C[C@@H]3C[C@@H](C/C=C(\C)C[C@@H](C)/C=C/C=C4\CO[C@@H]5[C@H](O)C(C)=C[C@@H](C(=O)O3)[C@]45O)O2)O[C@H](/C(C)=C/C(C)C)[C@H]1C` is reported as 11%.
`CCN(CC)C(=O)N1CCN(C)CC1` has a viability of 97.4%.
The viability of `CC(=O)N[C@H]1[C@H]([C@H](O)[C@H](O)CO)OC(C(=O)O)=C[C@@H]1N=C(N)N` is reported as 79.1%.
With `C/C(=C(\CCOP(=O)(O)O)SC(=O)c1ccccc1)N(C=O)Cc1cnc(C)nc1N` the viability was 58.1%.
`CC(N)CCCC(C)(C)O` (stereo not shown) gave a viability of 84.3%.

Sample 3
Structure (SMILES): O=C1NC(c2ccccn2)Sc2ccccc21 (stereo not shown)
Observed: cell-free assay
Technique: competition with immobilised ligand
Concentration: 1 µM
It gave 58% for remaining binding (Beta-adrenergic receptor kinase 1 (GRK2, Homo sapiens, UniProt P25098)).
Serine/threonine-protein kinase B-raf (BRAF, Homo sapiens, UniProt P15056) — remaining binding: 90%.
It gave 73% for remaining binding (Glycogen synthase kinase-3 alpha (GSK3A, Homo sapiens, UniProt P49840)).
The remaining binding was 72% (Mitogen-activated protein kinase 6 (MAPK6, Homo sapiens, UniProt Q16659)).
For Mitogen-activated protein kinase kinase kinase 5 (MAP3K5, Homo sapiens, UniProt Q99683): remaining binding read 72%.
For Serine/threonine-protein kinase 17B (STK17B, Homo sapiens, UniProt O94768): remaining binding read 73%.
For Serine/threonine-protein kinase LATS1 (LATS1, Homo sapiens, UniProt O95835): remaining binding read 98%.
It gave 100% for remaining binding (Cyclin-dependent kinase 9 (CDK9, Homo sapiens, UniProt P50750)).
The remaining binding was 76% (Tyrosine-protein kinase receptor TYRO3 (TYRO3, Homo sapiens, UniProt Q06418)).
For Phosphatidylinositol 4-kinase beta (PI4KB, Homo sapiens, UniProt Q9UBF8): remaining binding read 79%.
For Tyrosine-protein kinase SYK (SYK, Homo sapiens, UniProt P43405): remaining binding read 75%.
It gave 100% for remaining binding (Mitotic checkpoint serine/threonine-protein kinase BUB1 (BUB1, Homo sapiens, UniProt O43683)).
The remaining binding was 69% (Tyrosine-protein kinase JAK1, JH2 (JAK1, Homo sapiens, UniProt P23458)).
Receptor-type tyrosine-protein kinase FLT3 (FLT3, Homo sapiens, UniProt P36888, N841I) — remaining binding: 60%.
It gave 95% for remaining binding (Mitogen-activated protein kinase kinase kinase kinase 1 (MAP4K1, Homo sapiens, UniProt Q92918)).
For Ribosomal protein S6 kinase alpha-5, C-terminal kinase domain (RPS6KA5, Homo sapiens, UniProt O75582): remaining binding read 87%.

Other studies, line by line
With `CN(N=O)C(=O)N[C@@H]1[C@@H](O)[C@H](O)[C@@H](CO)O[C@@H]1O` the blood glucose was 499 mg/dL and 458 mg/dL and 450 mg/dL and 582 mg/dL and 466 mg/dL (mice, STZ diabetic neuropathy; dose not given, 14 days after STZ).
